Results gathered from unrelated publications.
± marks the error that the study gave.

| SMILES | tested on | assay | test system | setting | quantity | value |
| --- | --- | --- | --- | --- | --- | --- |
| O=C(O)CC[C@H](NC(=O)N[C@@H](CCCCNC(=O)[C@H](Cc1ccc2ccccc2c1)NC(=O)CCCCCNC(=O)CN1CCN(CC(=O)O)CCN(CC(=O)O)CCN(CC(=O)O)CC1)C(=O)O)C(=O)O [gallium-68 labelled] | – | PET/CT | mouse, 22Rv1 xenograft, tumour | intravenous, 3.7 MBq, 4 h | SUVmean | 0.35 ± 0.02 SUV |
| N=C(N)NCCC[C@@H](NC(=O)CCOCCOCCNC(=O)[C@H](CCCCNC(=O)CC[C@H](NC(=O)c1ccc(NCc2cnc3nc(N)[nH]c(=O)c3n2)cc1)C(=O)O)NC(=O)CO/N=C/[C@H](F)[C@@H](O)[C@H](O)[C@H](O)CO)C(=O)NCC(=O)N[C@H](CC(=O)O)C(N)=O [fluorine-18 labelled] | – | radio-HPLC | – | room temperature | stability time | ≥ 4 h |
| CC(C)[C@H](NC(=O)[C@@H](NC(=O)CCCc1cn(CC(O)CN2CCN(CC(=O)O)CCN(CC(=O)O)CCN(CC(=O)O)CC2)nn1)[C@@H](C)O)C(=O)N[C@@H](CCCNC(=N)N)C(=O)N[C@H](C(=O)N[C@@H](CO)C(=O)N[C@@H](C)C(=O)N[C@@H](CC(=O)O)C(=O)O)[C@@H](C)O (stereo partly shown) | – | – | healthy male humans, plasma | intravenous bolus, 0.08 mmol/kg | clearance | 1.02 ± 0.19 mL/min/kg |
| CC(C)C[C@H](NC(=O)C[C@H](O)[C@H](CC(C)C)NC(=O)[C@H](Cc1c[nH]cn1)NC(=O)CNC(=O)[C@@H](NC(=O)[C@H](C)NC(=O)[C@H](Cc1c[nH]c2ccccc12)NC(=O)[C@H](CCC(N)=O)NC(=O)[C@@H](Cc1ccccc1)NC(=O)COCCOCCNC(=O)CCC(C(=O)O)N1CCN(CC(=O)O)CCN(CC(=O)O)CCN(CC(=O)O)CC1)C(C)C)C(N)=O (stereo partly shown) [lutetium-177 labelled] | – | – | BALB/c nu/nu mice, PC-3 xenograft tumour | 100 pmol, 1 h, together with: PA 300 µg | tissue uptake | 16.7 ± 1.2 %ID/g |
| CCCCCCCCCCCCCCCCCC(=O)N[C@@H](CCCNC(=N)N)C(=O)N[C@@H](CC(=O)N[C@@H](Cc1ccccc1)C(=O)O)c1cccc2ccccc12 | – | HPLC, mass spectrometry | human serum | – | stability time | 24 h |
| CC(=O)Oc1cc2c(s1)CCN(C(C(=O)C1CC1)c1ccccc1F)C2 (stereo not shown) | Nedd8-cullin1 interaction | neddylation, AlphaScreen | – | 100 µM | inhibition | -9.1% |
| CC(C)[C@H](NC(=O)[C@H](Cc1ccc(O)cc1)NC(=O)[C@H](Cc1ccc(O)cc1)NC(=O)[C@@H]1CCCN1C(=O)[C@H](CCC(=O)O)NC(=O)[C@H](CCC(=O)O)NC(=O)[C@H](Cc1c[nH]c2ccccc12)NC(=O)[C@@H]1CCCN1C(=O)[C@@H](NC(=O)[C@H](CCC(N)=O)NC(=O)c1ccc2c(c1)C(=O)OC21c2ccc(O)cc2Oc2cc(O)ccc21)C(C)C)C(=O)N[C@H](C(=O)N[C@@H](CCCCN)C(=O)N[C@@H](CCCCN)C(=O)N[C@@H](CO)C(=O)N[C@@H](CO)C(=O)NCC(=O)NCC(N)=O)C(C)C | – | – | human, plasma | intravenous infusion, 189.6 mg, 0.25 h | plasma concentration | 15100 ng/mL |
| COc1ccc(CCN(C)CCCC(C#N)(c2ccc(OC)c(OC)c2)C(C)C)cc1OC (stereo not shown) | Nedd8-cullin1 interaction | neddylation, AlphaScreen | – | 100 µM | inhibition | -38.8% |
| C[C@@H](O)[C@@H](CO)NC(=O)[C@@H](CCCNC(=N)N)NC(=O)[C@@H]1CCCN1C(=O)[C@@H]1CSSC[C@H](NC(=O)[C@H](Cc2ccccc2)NC(=O)CN2CCN(CC(=O)O)CCN(CC(=O)O)CCN(CC(=O)O)CC2)C(=O)N[C@@H](Cc2ccc(O)cc2)C(=O)N[C@@H](Cc2ccccc2)C(=O)N[C@@H](CCC(N)=O)C(=O)N[C@@H](CC(N)=O)C(=O)N1 [gallium-68 labelled] | – | – | PBS | 2 h, 37 °C | radiochemical purity | > 99% |
| CC(C)C[C@H](NC(=O)C[C@H](O)[C@H](CC(C)C)NC(=O)[C@H](Cc1c[nH]cn1)NC(=O)CNC(=O)[C@@H](NC(=O)[C@H](C)NC(=O)[C@H](Cc1c[nH]c2ccccc12)NC(=O)[C@H](CCC(N)=O)NC(=O)[C@@H](Cc1ccccc1)NC(=O)COCCOCCNC(=O)CCC(C(=O)O)N1CCN(CC(=O)O)CCN(CC(=O)O)CC1)C(C)C)C(N)=O (stereo partly shown) [lutetium-177 labelled] | – | – | BALB/c nu/nu mice, female, carcass incl. GI tract contents | intravenous, 50 pmol, 24 h | tissue uptake | 0.4 ± 0.2 %ID |

Repeated from above:
| SMILES | tested on | assay | test system | setting | quantity | value |
| --- | --- | --- | --- | --- | --- | --- |
| CC(C)[C@H](NC(=O)[C@@H](NC(=O)CCCc1cn(CC(O)CN2CCN(CC(=O)O)CCN(CC(=O)O)CCN(CC(=O)O)CC2)nn1)[C@@H](C)O)C(=O)N[C@@H](CCCNC(=N)N)C(=O)N[C@H](C(=O)N[C@@H](CO)C(=O)N[C@@H](C)C(=O)N[C@@H](CC(=O)O)C(=O)O)[C@@H](C)O (stereo partly shown) | – | – | healthy male humans, plasma | intravenous bolus, 0.08 mmol/kg | clearance | 1.02 ± 0.19 mL/min/kg |
